Measured values pooled from the literature.
Compare with care: the assays were run in different laboratories.
Target: Voltage-gated inwardly rectifying potassium channel KCNH2 (KCNH2, Homo sapiens, UniProt Q12809)

Protein sequences, listed by entry. Tags and fused reporters are not part of them.
UniProt Q12809, whole entry: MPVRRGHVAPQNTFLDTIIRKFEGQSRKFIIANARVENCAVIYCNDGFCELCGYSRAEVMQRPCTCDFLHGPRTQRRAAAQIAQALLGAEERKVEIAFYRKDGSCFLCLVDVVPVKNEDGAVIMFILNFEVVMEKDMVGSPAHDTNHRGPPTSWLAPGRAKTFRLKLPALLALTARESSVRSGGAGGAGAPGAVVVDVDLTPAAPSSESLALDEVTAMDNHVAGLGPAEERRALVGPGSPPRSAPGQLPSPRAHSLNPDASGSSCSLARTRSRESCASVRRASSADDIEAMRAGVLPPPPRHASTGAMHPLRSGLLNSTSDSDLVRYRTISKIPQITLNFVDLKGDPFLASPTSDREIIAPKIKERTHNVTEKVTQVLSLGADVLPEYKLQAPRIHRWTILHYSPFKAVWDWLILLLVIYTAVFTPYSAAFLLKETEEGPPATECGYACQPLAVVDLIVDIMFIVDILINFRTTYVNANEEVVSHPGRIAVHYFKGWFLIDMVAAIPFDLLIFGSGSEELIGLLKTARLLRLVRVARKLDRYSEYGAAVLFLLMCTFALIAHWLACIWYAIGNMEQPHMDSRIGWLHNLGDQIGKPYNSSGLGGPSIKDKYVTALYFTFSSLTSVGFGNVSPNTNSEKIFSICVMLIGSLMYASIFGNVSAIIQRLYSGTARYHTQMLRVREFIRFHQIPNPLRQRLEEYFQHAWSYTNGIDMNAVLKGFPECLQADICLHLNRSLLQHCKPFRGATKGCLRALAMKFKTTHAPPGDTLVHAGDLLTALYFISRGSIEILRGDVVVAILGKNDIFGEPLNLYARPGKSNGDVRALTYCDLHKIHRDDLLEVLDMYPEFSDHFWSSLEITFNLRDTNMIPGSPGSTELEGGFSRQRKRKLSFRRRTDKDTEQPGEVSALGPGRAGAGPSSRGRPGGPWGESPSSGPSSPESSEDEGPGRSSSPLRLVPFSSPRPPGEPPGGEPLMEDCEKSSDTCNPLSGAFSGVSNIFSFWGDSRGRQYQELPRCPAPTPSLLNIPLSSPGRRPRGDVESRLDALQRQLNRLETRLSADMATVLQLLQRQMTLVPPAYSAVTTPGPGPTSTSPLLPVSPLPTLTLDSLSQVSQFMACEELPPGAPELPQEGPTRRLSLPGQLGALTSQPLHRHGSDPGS

SMILES | assay | system | setting | scale | endpoint | result
O=C(NCCNCCO)c1cc2c([nH]c3ccccc32)c(-c2ccc(Cl)c(Cl)c2)n1 | ion current, inhibitor |  |  |  | IC50 | 3200 nM
CC(=O)Nc1ccc2c3c(cccc13)C(=O)N(CCCCN1CCN(CCCCN3C(=O)CN(/N=C/c4ccc(-c5ccc(Cl)cc5)o4)C3=O)CC1)C2=O |  |  |  |  | Ki | 326 nM
Cc1cccc2c1[nH]c1c(-c3ccc(Cl)c(Cl)c3)nc(C(=O)NCCNCCO)cc12 | ion current, inhibitor |  |  |  | IC50 | 1300 nM
CCOc1ccccc1Nc1nnc(SCC(=O)Nc2cc(F)ccc2F)s1 | inhibitor |  |  |  | IC50 | > 80000 nM
CN(C)S(=O)(=O)c1ccc(NCCCCCCN2CCC(Nc3nc4ccccc4n3Cc3ccc(F)cc3)CC2)c2nonc12 | binding, radioligand displacement | hERG membranes | with: 9 nM [3H]dofetilide |  | IC50 | 160 nM
CC(=NN=c1[nH]c2cc(F)c(F)cc2n1C)c1ccc(F)cn1 | potassium current, inhibitor, manual patch clamp |  |  |  | IC50 | 1130 nM
O=C(NCCNCCO)c1cc2c([nH]c3ccccc32)c(-c2cc(Cl)c(Cl)c(Cl)c2)n1 | ion current, inhibitor |  |  |  | IC50 | 2100 nM
CC(=O)Nc1ccc2c3c(cccc13)C(=O)N(CCCCCCN1CCN(CCCCN3C(=O)CN(/N=C/c4ccc(-c5ccc(Cl)cc5)o4)C3=O)CC1)C2=O | probe binding |  | 10 µM | relative to: probe without hERG | fluorescence enhancement | ~10 fold
COc1ccc(CC(=O)OCc2ccc(-n3cccn3)cc2)cc1F | potassium current, inhibitor |  |  |  | IC50 | > 50000 nM

A few entries again:
SMILES | assay | system | setting | scale | endpoint | result
Cc1cccc2c1[nH]c1c(-c3ccc(Cl)c(Cl)c3)nc(C(=O)NCCNCCO)cc12 | ion current, inhibitor |  |  |  | IC50 | 1300 nM
